Assay results collected from several papers.
Lines come from different studies, so protocols differ. ± marks the error that the study gave.
Sample: plasma

The AUC(0-24 h) of `C#Cc1cccc(Nc2ncnc3cc(OCCOC)c(OCCOC)cc23)c1` is reported as 1860 ± 1790 ng·h/mL (human; oral, dose not given, day 29, normalised to 150 mg dose, with: dovitinib).
The AUC(0-24 h) of `CNCc1ccc(-c2[nH]c3cc(F)cc4c3c2CCNC4=O)cc1` is reported as 2880 ng·h/mL (human cancer patients; intravenous, 18 mg/m2, day 4, with: temozolomide 200).
The AUC(0-24 h) of `C#Cc1cccc(Nc2ncnc3cc(OCCOC)c(OCCO)cc23)c1` is reported as 342 ± 252 ng·h/mL (human; erlotinib, day 29, normalised to erlotinib 150 mg, with: dovitinib).
`COc1ccc(-n2nc(C(N)=O)c3c2C(=O)N(c2ccc(N4CCCCC4=O)cc2)CC3)cc1` has an AUC(0-24 h) of 935 ng·h/mL (healthy human subjects; oral, 2.5 mg twice daily, day 4, steady state, geometric mean, with: rivaroxaban 10 mg once daily).
With `O=C(c1nc2n(n1)[C@H](c1ccccc1)C[C@@H]2F)C1CC1` the AUC(0-24 h) was 9400 ng·h/mL (humans; oral, 75 mg single dose, high-fat meal).
With `CNCc1ccc(-c2[nH]c3cc(F)cc4c3c2CCNC4=O)cc1` the AUC(0-24 h) was 5410 ng·h/mL (human; oral, 300 mg, fasted, median).
With `CC(O)C(C)n1ncn(-c2ccc(N3CCN(c4ccc(OCC5COC(Cn6cncn6)(c6ccc(Cl)cc6Cl)O5)cc4)CC3)cc2)c1=O` (stereo not shown) the AUC(0-24 h) was 13500 ng·h/mL (human male; oral, dose not given, day 3, geometric mean, with: itraconazole 200 mg pretreatment).
`COc1cccc(-c2ccc(NC(=O)C3=C(C(=O)O)CCC3)c(F)c2)c1` gave an AUC(0-24 h) of 100000 ng·h/mL (human male; oral, 30 mg once daily, day 13, geometric mean).
For `Nc1ncc(-c2cnn(CCO)c2)c2scc(-c3ccc(NC(=O)Nc4cccc(F)c4)cc3)c12`, the AUC(0-24 h) was 540 ng·h/mL (human patients; oral, 20 mg once weekly, first dose).
`CC(C)[C@H](C(=O)Nc1ccc(C(=O)NO)cc1)c1ccccc1` gave an AUC(0-24 h) of 4.93 to 27.6 µM·h (human; oral, 30 to 80 mg, individual values).

Some of these lines once more:
With `O=C(c1nc2n(n1)[C@H](c1ccccc1)C[C@@H]2F)C1CC1` the AUC(0-24 h) was 9400 ng·h/mL (humans; oral, 75 mg single dose, high-fat meal).
With `CNCc1ccc(-c2[nH]c3cc(F)cc4c3c2CCNC4=O)cc1` the AUC(0-24 h) was 5410 ng·h/mL (human; oral, 300 mg, fasted, median).
